Results from different studies.
Each numbered part is a random draw from the data of one study; scales do not carry over between parts. ± gives the spread as reported.
Chain of UniProt O00506 (whole entry, looked up): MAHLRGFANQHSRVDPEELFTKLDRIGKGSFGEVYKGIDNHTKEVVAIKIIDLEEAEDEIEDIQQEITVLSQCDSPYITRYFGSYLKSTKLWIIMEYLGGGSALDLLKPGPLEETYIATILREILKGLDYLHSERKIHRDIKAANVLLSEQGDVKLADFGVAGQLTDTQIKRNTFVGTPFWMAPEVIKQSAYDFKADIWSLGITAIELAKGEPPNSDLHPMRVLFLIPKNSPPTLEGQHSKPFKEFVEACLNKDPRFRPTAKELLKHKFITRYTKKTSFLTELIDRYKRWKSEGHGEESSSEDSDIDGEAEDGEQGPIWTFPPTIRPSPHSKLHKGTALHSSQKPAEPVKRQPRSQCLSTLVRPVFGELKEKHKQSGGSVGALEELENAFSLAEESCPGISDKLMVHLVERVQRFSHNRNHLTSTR
Chain of UniProt Q16512 (whole entry, looked up): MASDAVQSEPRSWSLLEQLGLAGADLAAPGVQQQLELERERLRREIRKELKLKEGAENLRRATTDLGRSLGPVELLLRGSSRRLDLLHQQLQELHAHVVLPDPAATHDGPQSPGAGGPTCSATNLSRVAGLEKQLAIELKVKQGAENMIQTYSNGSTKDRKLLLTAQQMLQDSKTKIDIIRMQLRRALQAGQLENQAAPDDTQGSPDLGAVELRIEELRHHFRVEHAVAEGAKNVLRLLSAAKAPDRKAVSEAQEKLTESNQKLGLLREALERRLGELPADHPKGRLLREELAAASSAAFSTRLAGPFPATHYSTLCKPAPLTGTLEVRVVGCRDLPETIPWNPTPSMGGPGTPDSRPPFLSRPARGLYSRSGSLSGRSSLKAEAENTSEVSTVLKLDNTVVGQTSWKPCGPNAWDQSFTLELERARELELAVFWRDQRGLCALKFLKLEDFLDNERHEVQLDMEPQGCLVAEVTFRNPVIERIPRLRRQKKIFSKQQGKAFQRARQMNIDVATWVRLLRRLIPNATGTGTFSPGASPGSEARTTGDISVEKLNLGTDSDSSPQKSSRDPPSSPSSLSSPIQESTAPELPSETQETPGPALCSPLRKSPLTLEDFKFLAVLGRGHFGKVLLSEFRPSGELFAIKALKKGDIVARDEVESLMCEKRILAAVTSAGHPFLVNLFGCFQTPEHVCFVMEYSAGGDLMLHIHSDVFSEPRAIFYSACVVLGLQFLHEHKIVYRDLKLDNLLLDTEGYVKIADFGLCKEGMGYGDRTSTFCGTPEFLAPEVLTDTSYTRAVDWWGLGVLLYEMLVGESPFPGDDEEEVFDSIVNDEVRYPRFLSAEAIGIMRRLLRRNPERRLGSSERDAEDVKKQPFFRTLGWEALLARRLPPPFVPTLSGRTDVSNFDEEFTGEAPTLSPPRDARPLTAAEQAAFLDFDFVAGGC
Chain of UniProt P20309 (whole entry, looked up): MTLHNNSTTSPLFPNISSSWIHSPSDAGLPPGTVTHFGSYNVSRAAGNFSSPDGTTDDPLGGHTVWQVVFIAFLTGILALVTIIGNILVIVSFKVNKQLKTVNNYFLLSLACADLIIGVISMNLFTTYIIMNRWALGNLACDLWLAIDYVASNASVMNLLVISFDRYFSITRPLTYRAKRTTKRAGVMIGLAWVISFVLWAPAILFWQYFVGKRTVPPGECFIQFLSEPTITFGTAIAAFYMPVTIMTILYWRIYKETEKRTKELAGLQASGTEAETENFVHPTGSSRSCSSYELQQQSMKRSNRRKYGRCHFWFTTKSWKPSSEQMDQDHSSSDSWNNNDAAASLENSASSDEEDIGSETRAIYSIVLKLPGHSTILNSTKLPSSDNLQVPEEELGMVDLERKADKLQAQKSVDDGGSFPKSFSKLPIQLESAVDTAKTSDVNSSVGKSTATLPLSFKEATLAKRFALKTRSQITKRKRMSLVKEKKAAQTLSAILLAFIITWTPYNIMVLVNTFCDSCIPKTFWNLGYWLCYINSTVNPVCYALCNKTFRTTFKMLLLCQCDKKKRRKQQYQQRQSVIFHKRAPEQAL

Sample 1 — organism: Sarcocystis neurona; read-out: parasite growth; tested at: 10 µM; time: 96 h; setting: second screen; baseline: untreated
SMILES	log2 fold change
CCC1(c2ccc(N)cc2)CCC(=O)NC1=O (stereo not drawn)	0.39
c1cncc([C@@H]2CCCN2)c1	0.52
CC(C)[C@]12O[C@H]1[C@@H]1O[C@]13[C@]1(O[C@H]1C[C@H]1C4=C(CC[C@@]13C)C(=O)OC4)[C@@H]2O	-2.49
NC1=NC(=O)C(c2ccccc2)O1 (stereo not drawn)	0.33
Oc1c(Cl)cc(Cl)c(Cl)c1Cc1c(O)c(Cl)cc(Cl)c1Cl	-1.75
O=C(c1ccc(F)cc1)C1CCN(CCn2c(=S)[nH]c3ccccc3c2=O)CC1	-1.59
O=C(O)C(Cl)Cl	0.27
CN1C(=O)CN=C(c2ccccc2)c2cc(Cl)ccc21	0.35

Sample 2 — read-out: enzyme activity; mode: inhibitor; tested at: 77 µM; baseline: untreated
Target: DNA polymerase theta, ATPase domain (POLQ, Homo sapiens, UniProt O75417)
Chain of UniProt O75417 (whole entry, unmodified, looked up): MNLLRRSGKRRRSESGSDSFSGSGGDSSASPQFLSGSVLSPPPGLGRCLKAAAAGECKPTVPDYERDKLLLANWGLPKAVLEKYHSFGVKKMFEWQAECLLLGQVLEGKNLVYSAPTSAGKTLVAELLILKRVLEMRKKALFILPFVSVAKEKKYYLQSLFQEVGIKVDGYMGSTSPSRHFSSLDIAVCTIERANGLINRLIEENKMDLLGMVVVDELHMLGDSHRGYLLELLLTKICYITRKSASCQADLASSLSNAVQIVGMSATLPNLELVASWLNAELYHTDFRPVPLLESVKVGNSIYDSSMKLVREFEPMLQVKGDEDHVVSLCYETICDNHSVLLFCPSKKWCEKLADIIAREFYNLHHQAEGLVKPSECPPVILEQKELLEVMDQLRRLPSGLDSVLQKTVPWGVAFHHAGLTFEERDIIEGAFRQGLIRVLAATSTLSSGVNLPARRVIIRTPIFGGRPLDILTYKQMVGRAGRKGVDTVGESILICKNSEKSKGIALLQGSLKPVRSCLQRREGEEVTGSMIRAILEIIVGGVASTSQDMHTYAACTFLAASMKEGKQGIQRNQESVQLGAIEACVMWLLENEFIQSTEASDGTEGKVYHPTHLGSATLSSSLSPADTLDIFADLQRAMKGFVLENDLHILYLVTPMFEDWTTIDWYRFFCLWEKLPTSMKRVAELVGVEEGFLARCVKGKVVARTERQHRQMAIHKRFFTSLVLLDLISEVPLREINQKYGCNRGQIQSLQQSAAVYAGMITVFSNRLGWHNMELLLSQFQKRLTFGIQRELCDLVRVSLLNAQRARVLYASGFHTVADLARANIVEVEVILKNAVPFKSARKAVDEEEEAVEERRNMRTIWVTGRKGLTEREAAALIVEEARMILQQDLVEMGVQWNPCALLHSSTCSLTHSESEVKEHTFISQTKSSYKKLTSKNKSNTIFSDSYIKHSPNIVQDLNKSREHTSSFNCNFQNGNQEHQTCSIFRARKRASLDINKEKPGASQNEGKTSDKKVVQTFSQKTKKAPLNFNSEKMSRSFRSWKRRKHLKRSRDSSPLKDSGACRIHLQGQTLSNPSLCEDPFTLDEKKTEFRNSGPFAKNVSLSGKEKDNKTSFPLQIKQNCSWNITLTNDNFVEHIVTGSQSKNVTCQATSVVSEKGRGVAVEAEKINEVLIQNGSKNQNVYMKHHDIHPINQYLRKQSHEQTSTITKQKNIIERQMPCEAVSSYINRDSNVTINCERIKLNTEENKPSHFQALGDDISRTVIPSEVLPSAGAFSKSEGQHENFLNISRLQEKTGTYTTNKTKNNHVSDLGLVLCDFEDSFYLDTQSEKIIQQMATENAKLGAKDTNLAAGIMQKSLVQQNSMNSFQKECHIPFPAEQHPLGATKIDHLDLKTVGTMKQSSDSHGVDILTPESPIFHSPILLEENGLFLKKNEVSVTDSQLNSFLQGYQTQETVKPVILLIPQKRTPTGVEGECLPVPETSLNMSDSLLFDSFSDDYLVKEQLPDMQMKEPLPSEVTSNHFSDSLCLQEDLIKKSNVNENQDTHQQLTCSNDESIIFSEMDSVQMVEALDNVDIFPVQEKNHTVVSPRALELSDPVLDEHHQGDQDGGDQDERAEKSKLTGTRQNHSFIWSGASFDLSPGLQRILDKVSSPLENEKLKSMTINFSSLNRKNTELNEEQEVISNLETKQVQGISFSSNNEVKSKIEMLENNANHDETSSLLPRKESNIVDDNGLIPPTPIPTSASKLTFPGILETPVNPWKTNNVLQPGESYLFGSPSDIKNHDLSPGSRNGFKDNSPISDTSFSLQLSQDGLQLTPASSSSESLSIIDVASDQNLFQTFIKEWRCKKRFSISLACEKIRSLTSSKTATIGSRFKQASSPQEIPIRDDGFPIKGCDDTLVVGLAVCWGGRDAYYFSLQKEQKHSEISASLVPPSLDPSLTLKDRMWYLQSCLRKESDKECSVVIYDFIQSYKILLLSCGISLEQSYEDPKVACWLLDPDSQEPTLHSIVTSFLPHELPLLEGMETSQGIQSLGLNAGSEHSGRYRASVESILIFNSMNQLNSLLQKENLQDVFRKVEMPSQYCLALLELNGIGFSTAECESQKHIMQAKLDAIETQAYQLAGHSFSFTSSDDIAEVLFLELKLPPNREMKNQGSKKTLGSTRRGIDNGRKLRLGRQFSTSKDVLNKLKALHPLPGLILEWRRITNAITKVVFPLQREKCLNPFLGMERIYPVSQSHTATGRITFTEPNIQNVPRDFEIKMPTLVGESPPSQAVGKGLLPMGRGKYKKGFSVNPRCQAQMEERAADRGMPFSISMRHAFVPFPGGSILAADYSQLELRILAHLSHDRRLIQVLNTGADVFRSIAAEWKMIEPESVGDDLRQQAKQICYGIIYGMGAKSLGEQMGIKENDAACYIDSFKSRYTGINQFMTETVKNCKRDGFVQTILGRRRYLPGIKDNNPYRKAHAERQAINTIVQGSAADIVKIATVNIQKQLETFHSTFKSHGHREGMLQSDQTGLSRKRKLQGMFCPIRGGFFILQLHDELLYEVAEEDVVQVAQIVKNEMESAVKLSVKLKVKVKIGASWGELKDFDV
SMILES	remaining activity
CCNC(=O)[C@H]1O[C@@H](n2cnc3c(N)ncnc32)[C@H](O)[C@@H]1O	102%
COc1cc(OC)c(OC)cc1C=O	97.8%
Nc1ccc(CCN2CCN(c3cccc(C(F)(F)F)c3)CC2)cc1	105%
Clc1cnc(Oc2ccc(Oc3ncc(Cl)cc3Cl)cc2)c(Cl)c1	98.8%
COc1ccc2c(c1OC)CN1CCc3cc4c(cc3C1C2)OCO4 (stereo not drawn)	101%
C[C@@H]1CC[C@@]2(OC1)O[C@H]1C[C@H]3[C@@H]4CC=C5C[C@@H](O[C@@H]6O[C@H](CO)[C@@H](O[C@@H]7O[C@@H](C)[C@H](O)[C@@H](O)[C@H]7O)[C@H](O)[C@H]6O[C@@H]6O[C@@H](C)[C@H](O)[C@@H](O)[C@H]6O)CC[C@]5(C)[C@H]4CC[C@]3(C)[C@H]1[C@@H]2C	103%
C#C[C@]1(O)CC[C@H]2[C@@H]3CCC4=CC(=O)CC[C@]4(C)[C@H]3CC[C@@]21C	97.3%

Sample 3 — SMILES: COc1ccc2c(c1)/C(=C/c1cnc[nH]1)C(=O)N2; read-out: enzyme activity; mode: inhibitor; tested at: 0.5 µM; baseline: control
target	remaining activity
SRC (Homo sapiens, UniProt P12931)	92.1%
MATK (Homo sapiens, UniProt P42679)	92.3%
CDC42BPA (Homo sapiens, UniProt Q5VT25)	98.5%
PRKX (Homo sapiens, UniProt P51817)	87.9%
FYN (Homo sapiens, UniProt P06241)	81.2%
FGR (Homo sapiens, UniProt P09769)	80.4%
HIPK1 (Homo sapiens, UniProt Q86Z02)	98.9%
FER (Homo sapiens, UniProt P16591)	88.4%
TAOK3 (Homo sapiens, UniProt Q9H2K8)	44%
NLK (Homo sapiens, UniProt Q9UBE8)	69.7%
NEK11 (Homo sapiens, UniProt Q8NG66)	84.8%
PKN1 (Homo sapiens, UniProt Q16512)	87.4%
ITK (Homo sapiens, UniProt Q08881)	94%
ALK (Homo sapiens, UniProt Q9UM73)	112%
MARK3 (Homo sapiens, UniProt P27448)	56.2%
PASK (Homo sapiens, UniProt Q96RG2)	93.4%
STK25 (Homo sapiens, UniProt O00506)	86.2%
FLT4 (Homo sapiens, UniProt P35916)	66.4%
LIM domain kinase 1 (LIMK1, Homo sapiens, UniProt P53667)	89.6%
AKT1 (Homo sapiens, UniProt P31749)	100%

Sample 4 — read-out: cell-free assay; tested at: 10 µM
Compound: O=C(c1ccc(F)cc1)N1CC(COc2ccc(Br)cc2)(C(=O)O)C1
target	inhibition [%]
OPRK1 (Homo sapiens, UniProt P41145)	-9.45
CHRM3 (Homo sapiens, UniProt P20309)	27.9
OPRM1 (Homo sapiens, UniProt P35372)	-11.9
DRD5 (Homo sapiens, UniProt P21918)	2.2
HTR2A (Homo sapiens, UniProt P28223)	-2.23
CHRM1 (Homo sapiens, UniProt P11229)	-0.69

Single results of other studies
SMILES	target	cell line	endpoint	value
CCN(CC)C(=O)c1ccc(C2=CC3(CCNCC3)Oc3cccc(O)c32)cc1	Delta-type opioid receptor, with β-arrestin1 (OPRD1, Homo sapiens, UniProt P41143)	human cells	Emax	110 ± 9%

Some of these lines once more (sample 1):
SMILES	log2 fold change
NC1=NC(=O)C(c2ccccc2)O1 (stereo not drawn)	0.33
Oc1c(Cl)cc(Cl)c(Cl)c1Cc1c(O)c(Cl)cc(Cl)c1Cl	-1.75
O=C(c1ccc(F)cc1)C1CCN(CCn2c(=S)[nH]c3ccccc3c2=O)CC1	-1.59
O=C(O)C(Cl)Cl	0.27
